Measurements pooled from the literature.
Protocols differ between the studies behind these lines. Values joined by “and” are separate records of one study, mostly repeats; a detail may differ. ± gives the spread as reported.

SMILES | test | system | conditions | how to read | Cmax
CCN1CCN(Cc2ccc(Nc3ncc(F)c(-c4cc(F)c5nc(C)n(C(C)C)c5c4)n3)nc2)CC1 | – | healthy human, fasted, plasma | oral, 200 mg, 2 x 100 mg capsules | – | 116 ng/mL
Cn1cncc1[C@@](N)(c1ccc(Cl)cc1)c1ccc2c(c1)c(-c1cccc(Cl)c1)cc(=O)n2C | – | human | oral, 300 mg/m2, first dose, cycle 1 | – | 2270 ng/mL
Cn1c(=O)oc2ccc(-c3ccc(C[C@@H](C#N)NC(=O)[C@@H]4CNCCCO4)cc3)cc21 | – | human, moderate renal impairment, plasma | oral, 25 mg single dose, geometric least squares mean | – | 183 ng/mL
CC(C)[C@@H]1CC[C@@H](C)C[C@H]1OC(=O)O[C@@H](C)OC(=O)[C@H]1[C@@H]2C[C@H](F)[C@@](N)(C(=O)O)[C@@H]21 | – | human, plasma | oral, 10 mg, fasted, single dose | – | 14.6 ng/mL
COc1cc(C(=O)NC2CCN(C)CC2)c(F)cc1Nc1ncc(C(F)(F)F)c(Oc2cccc3c2C(=O)N(C)C3)n1 | – | human, Taiwanese, plasma | oral, 200 mg single dose, geometric mean | – | 1530 nM
NC(=S)NN=Cc1ncccc1N | – | human, plasma | oral, 150 mg | – | 344 ng/mL
C[C@H](CCC(=O)NCC(=O)O)[C@H]1CC[C@H]2[C@@H]3CC[C@@H]4C[C@H](O)CC[C@]4(C)[C@H]3CC[C@]12C | – | human, plasma | concentration not given, endogenous control diurnal | – | 85.9 ± 24 nM
COc1cc(Nc2c(C#N)cnc3cc(OCCCN4CCN(C)CC4)c(OC)cc23)c(Cl)cc1Cl | – | human, normal hepatic function (Child-Pugh), plasma | single dose, geometric mean, total drug | – | 32.3 ng/mL
NC[C@@]1(CC(=O)O)[C@@H]2CC[C@H]3C[C@@H]2[C@@H]1C3 | – | human, moderate renal impairment, plasma | oral, 20 mg single dose, geometric mean | – | 410 ng/mL
C#Cc1cccc(Nc2ncnc3cc(OCCOC)c(OCCOC)cc23)c1 | – | human, plasma | oral, 100 mg daily, day 8, added: docetaxel | – | 2780 ± 1220 nM
CC(C)(Sc1ccncc1-c1ccc(C#N)c2ccccc12)C(=O)O | – | human, plasma | oral, 10 mg once daily, added: febuxostat 40 mg | – | 25.5 ng/mL
CO[C@@H]1[C@H](OC(=O)N2CC(CCN3CCOCC3)C2)CC[C@]2(CO2)[C@H]1[C@@]1(C)O[C@@H]1CC=C(C)C | – | humans, plasma | subcutaneous, 0.2 mg twice weekly, first dose | – | 0.18 ± 0.09 ng/mL
COc1ccc2[nH]c([S@+]([O-])Cc3ncc(C)c(OC)c3C)nc2c1 | – | human, dried blood spots | oral, 10 mg omeprazole, added: fluvoxamine | – | 197 ng/mL
Cc1cc(-c2nccc3c2ccn3CC(=O)Nc2ccc(-c3cnccn3)cn2)ccn1 | – | human, plasma | oral, 15 mg once daily, day 1, geometric mean | – | 184 nM
COC(=O)N[C@@H](C)CNc1nccc(-c2cn(C(C)C)nc2-c2cc(Cl)cc(NS(C)(=O)=O)c2F)n1 | – | human, plasma | oral, 50 mg, single dose alone | geometric mean | 554 ng/mL
Cc1ncnc2c1ccn2[C@@H]1C[C@H](Oc2cc(C(F)F)c(F)c3c2CNCC3)[C@@H](O)[C@H]1O | – | human | oral, 2 mg twice daily | – | 24.6 ng/mL and 29.1 ng/mL
N#C[C@H](C[C@@H]1CCCNC1=O)NC(=O)[C@H](CC1CC1)NC(=O)c1cc2cccc(Cl)c2[nH]1 | – | human, plasma | 225 mg twice daily, day 5 | – | 1940 ng/mL
COCCc1ccc(OCC(O)CNC(C)C)cc1 (stereo not drawn) | refers to: sum of R and S enantiomers | human, plasma | oral, 100 mg single dose | – | 30.6 ng/mL
Cc1cc(Nc2cc3ncccc3c(N[C@@H]3C[C@H]4CC[C@@H](C3)N4CCC#N)n2)n[nH]1 | – | human, plasma | 1000 mg single dose, mean | – | 37.2 ng/mL
C[C@H]1CN(C(=O)CC#N)[C@]12CCN(c1ncnc3[nH]ccc13)C2 | – | healthy human, plasma | oral, 3 mg single, mean | – | 19.9 ng/mL
O=C(O)C[C@H](O)C[C@H](O)/C=C/c1c(C2CC2)nc2ccccc2c1-c1ccc(F)cc1 | – | OATP1B1/1B3 humanized mouse, plasma | oral, 5 mg/kg, added: silymarin 500 mg/kg oral | – | 579 nM
CNC(=O)c1ccccc1Sc1ccc2c(/C=C/c3ccccn3)n[nH]c2c1 | – | human, moderate hepatic impairment (Child-Pugh), plasma | single dose, geometric mean, total drug | – | 38.8 ng/mL
CC(C)NC(=O)COc1cccc(-c2nc(Nc3ccc4[nH]ncc4c3)c3ccccc3n2)c1 | – | human male, plasma | oral, 200 mg once daily, day 12, fed, geometric mean, added: dabigatran etexilate | – | 2180 ng/mL
Cn1ncnc1[C@H]1c2n[nH]c(=O)c3cc(F)cc(c23)N[C@@H]1c1ccc(F)cc1 | – | human patients, plasma | oral, 400 µg/m2 twice daily, day 1, monotherapy, dose level DL2, median | – | 1.6 ng/mL

SMILES | test | system | conditions | how to read | Cmax
Cc1cc(/C=C/C#N)cc(C)c1Nc1ccnc(Nc2ccc(C#N)cc2)n1 | – | human, normal renal function, plasma | oral, dose not given, steady state | – | 140 ng/mL
C[C@@H](Cn1ccc(-c2ccc(C#N)c(Cl)c2)n1)NC(=O)c1cc([C@@H](C)O)[nH]n1 | – | human, fasted, plasma | oral, 300 mg darolutamide tablet, geometric mean | – | 277 ng/mL
Cn1c(=O)oc2ccc(-c3ccc(C[C@@H](C#N)NC(=O)[C@@H]4CNCCCO4)cc3)cc21 | HPLC-MS/MS | healthy male humans, plasma | oral, 25 mg | – | 598 nM
O=C(Nc1cnccc1Cl)N1CCN(Cc2ccc3c(c2)OC(F)(F)O3)CC1 | – | human healthy young men, plasma | oral, 25 mg once daily, day 10, multiple dose mean | – | 225 ng/mL
O=C1CC[C@H](N2Cc3cc(N4CCN(CC5CCN(c6ccc([C@@H]7c8ccc(O)cc8CC[C@@H]7c7ccccc7)cc6)CC5)CC4)ccc3C2=O)C(=O)N1 | – | human, plasma | oral, 200 mg, added: rosuvastatin 10 mg | – | 474 ng/mL
Nc1ccn([C@@H]2O[C@H](CO)[C@@H](O)C2(F)F)c(=O)n1 | – | human, plasma | intravenous, dose not given, mean, after paricalcitol | – | 16000 ng/mL
Cc1nc(-c2ccc(OCC(C)C)c(C#N)c2)sc1C(=O)O | – | human | oral, 40 mg once daily, added: verinurad 0 mg | – | 1240 ng/mL
Cc1cc(C)c(CNC(=O)c2cc(Cl)c3c(c2C)O[C@@](C)([C@H]2CC[C@H](N(C)C)CC2)O3)c(=O)[nH]1 | refers to: total radioactivity | human male, plasma | oral, 200 mg | – | 2400 ng eq/mL
NC1(C(=O)N[C@@H](CCO)c2ccc(Cl)cc2)CCN(c2ncnc3[nH]ccc23)CC1 | – | human, plasma | 640 mg twice daily, day 4, 4 days on, 3 days off | – | 2720 ng/mL
Cc1ccc(C(=O)N(CCCN)C(c2nc3snc(C)c3c(=O)n2Cc2ccccc2)C(C)C)cc1 (stereo not drawn) | – | human patients, plasma | intravenous, 4 mg/day, day 3 of induction course, geometric mean | – | 19.3 ng/mL
N[C@@H](CC(=O)N1CCn2c(nnc2C(F)(F)F)C1)Cc1cc(F)c(F)cc1F | – | male human, plasma | oral, 100 mg single dose | – | 464 ± 124 ng/mL
Cn1nnc2c(C(N)=O)ncn2c1=O | – | human patients, plasma | oral, 55 mg/m2, day 5, dose level DL6, median, added: talazoparib 600 µg/m2 | – | 3560 ng/mL
N#CCNC(=O)c1ccc(-c2ccnc(Nc3ccc(N4CCOCC4)cc3)n2)cc1 | – | healthy human volunteers, plasma | oral, 100 mg once daily, day 7, fed, given alone | – | 261 ng/mL
COc1ccc([C@@H](O)c2cc(-c3ncnc4cc(N5CCOCC5)ccc34)c(F)cc2Cl)nn1 | – | human, plasma | oral, 100 mg twice daily, single dose, geometric mean | – | 392 ng/mL
Cc1ccc([C@@H]2O[C@H](CO)[C@@H](O)[C@H](O)[C@H]2O)cc1Cc1ccc(-c2ccc(F)cc2)s1 | – | human, maintenance hemodialysis patients | oral, 300 mg once daily, steady state, mean | – | 2580 ng/mL
Fc1ccc([C@@H]2CCNC[C@H]2COc2ccc3c(c2)OCO3)cc1 | – | human, CYP2D6 intermediate metabolizers | oral, 20 mg, steady state, geometric mean | – | 38 ng/mL
Nc1ccc(-c2nc([C@H]3CCc4cc(-c5cc(Cl)ccc5-n5cnnn5)cc(=O)n43)c(F)[nH]2)c(F)n1 | – | human, plasma | oral, 80 mg once daily, day 1 | – | 553 ng/mL
Cc1cc(-c2nnc(N)nc2-c2ccc(F)cc2)cc(Cl)n1 | – | human patients, plasma | oral, 75 mg capsule once daily, multiple doses, arithmetic mean | – | 538 ng/mL
CN(C)C(=O)c1cc2cnc(Nc3ccc(N4CCNCC4)cn3)nc2n1C1CCCC1 | – | human, moderate renal impairment, plasma | oral, 400 mg, geometric mean | – | 419 ng/mL
O=C(O)c1cc(/N=N/c2ccc(S(=O)(=O)Nc3ccccn3)cc2)ccc1O | LC-MS | human, plasma | oral, 1000 mg, day 1 | arithmetic mean | 8350 ng/mL
CN1CCC(COc2cnc(-c3cccc(Cn4nc(-c5cccc(C#N)c5)ccc4=O)c3)nc2)CC1 | – | human | 500 mg, day 1, alone, geometric mean | – | 414 ng/mL
CC(=O)O.NC(=O)c1cnc(N[C@@H]2CCCC[C@@H]2N)nc1Nc1cccc(-n2nccn2)c1 | – | human, plasma | oral, 66 mg once daily | – | 119 ng/mL
Cc1nc(Nc2ncc(C(=O)Nc3c(C)cccc3Cl)s2)cc(N2CCN(CCO)CC2)n1 | – | human patients | oral, 65 mg/m^2, day 42, added: vandetanib | – | 106 ± 83 ng/mL
C[C@H](CCC(=O)NCC(=O)O)[C@H]1CC[C@H]2[C@@H]3CC[C@@H]4C[C@H](OS(=O)(=O)O)CC[C@]4(C)[C@H]3C[C@H](O)[C@]12C | – | human, plasma | concentration not given, endogenous control diurnal | – | 520 ± 180 nM
